Assay results pooled from the literature.
Parts stem from different laboratories: compare values within a part only. Substitutions count along the parent as printed.

Set 1
Target: Histone acetyltransferase KAT6A, both winged helices, GST fusion (KAT6A, Homo sapiens, UniProt Q92794, residues 1-181)
Technique: protein binding microarray
Molecule type: double-stranded DNA, one strand shown
Sample: in vitro
Tested at: not given
Notes: 8-mer, flanks averaged, mean of 2 arrays, mostly near background
Reference: not given
Reading: higher = stronger binding
Target sequence (chain): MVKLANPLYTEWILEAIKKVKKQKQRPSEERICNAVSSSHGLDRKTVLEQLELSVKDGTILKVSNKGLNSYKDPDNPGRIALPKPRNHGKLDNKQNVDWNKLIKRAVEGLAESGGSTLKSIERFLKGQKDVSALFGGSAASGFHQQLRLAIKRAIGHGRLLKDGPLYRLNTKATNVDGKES
The E-score of `CCACTCAA` is reported as -0.201.
For `GTCTATGA`, the E-score was -0.0911.
`ATCGGCAT` gave an E-score of 0.188.
For `CAACAGCC`, the E-score was 0.0442.
The E-score of `GGAGAAAC` is reported as 0.0387.
With `CCAGTTCA` the E-score was -0.00179.
`CGTGACCA` gave an E-score of -0.00985.
The E-score of `CAAGCTGA` is reported as -0.272.
The E-score of `AGACACAT` is reported as -0.187.
`GAGTGGCC` gave an E-score of 0.00092.
The E-score of `GGACTTAA` is reported as -0.0841.
With `CGTGAGGA` the E-score was 0.0928.
`CATTGAAC` has an E-score of -0.0196.
`CAAGCATC` gave an E-score of -0.058.
`AGTGGATC` gave an E-score of -0.129.
`AAAATCCC` has an E-score of -0.0073.

Set 2
Target: Prothrombin, mature alpha-thrombin (F2, Homo sapiens, UniProt P00734)
Technique: aptamer microarray, sandwich
Molecule type: DNA with 2'F-ANA
Sample: in vitro
Tested at: 200 nM
Notes: whole 15-mer aptamer, many near background
Added: Cy3 exosite-II aptamer, 400 nM
Reading: higher = stronger binding
Sequence: GGTTGGTGTGGTTGG
`2'F-ANA at 1 9 10 13 15`: “mean fluorescence intensity” 53.7 a.u.
For `2'F-ANA at 1 3 5 6 10 13 15`, “mean fluorescence intensity” read 54.6 a.u.
`2'F-ANA at 1 2 3 4 6 7 8 9 10 11 15`: “mean fluorescence intensity” 194 a.u.
For `2'F-ANA at 2 3 8 9 11 13 14`, “mean fluorescence intensity” read 425 a.u.
Under “mean fluorescence intensity”, `2'F-ANA at 3 4 6 7 9 10 13 14` is recorded as 191 a.u.
Under “mean fluorescence intensity”, `2'F-ANA at 1 3 6 8 9 10 11 12 14 15` is recorded as 64.5 a.u.
`2'F-ANA at 3 4 7 11 12 13 15` — result for “mean fluorescence intensity”: 730 a.u.
For `2'F-ANA at 2 5 6 7 8 9 10 11 15`, “mean fluorescence intensity” read 50.3 a.u.
`2'F-ANA at 2 4 8 9 14 15` — result for “mean fluorescence intensity”: 92.6 a.u.
`2'F-ANA at 1 2 3 4 8 9 13` — result for “mean fluorescence intensity”: 204 a.u.
`2'F-ANA at 1 2 3 5 6 9 11` — result for “mean fluorescence intensity”: 57.4 a.u.
`2'F-ANA at 2 3 4 6 7 8 9 10 11 12` — result for “mean fluorescence intensity”: 239 a.u.
`2'F-ANA at 4 6 8 11 13 15`: “mean fluorescence intensity” 169 a.u.
Under “mean fluorescence intensity”, `2'F-ANA at 2 3 4 6 7 8 9 10 12 13 14 15` is recorded as 161 a.u.
Under “mean fluorescence intensity”, `2'F-ANA at 1 4 5 6 7 9 11 13` is recorded as 50.2 a.u.
`2'F-ANA at 1 2 4 6 7 8 10 11 12 13 14 15` — result for “mean fluorescence intensity”: 156 a.u.
`2'F-ANA at 1 2 3 4 8 10 11 13` — result for “mean fluorescence intensity”: 74.9 a.u.
`2'F-ANA at 1 8 9 11` — result for “mean fluorescence intensity”: 183 a.u.
Under “mean fluorescence intensity”, `2'F-ANA at 4 9 12` is recorded as 560 a.u.
For `2'F-ANA at 2 5 6 10 11 12 15`, “mean fluorescence intensity” read 54.7 a.u.
`2'F-ANA at 2 5 6 7 9 10 12 14 15`: “mean fluorescence intensity” 52.5 a.u.
For `2'F-ANA at 1 3 4 9 11 12 14`, “mean fluorescence intensity” read 81 a.u.

Set 3
Target: Interferon regulatory factor 5, full length, phosphomimetic (IRF5, Homo sapiens, UniProt Q13568-2, residues 1-514, S451D/S453D/S456D/S462D)
Technique: protein-binding microarray
Molecule type: double-stranded DNA, one strand shown
Sample: in vitro
Tested at: 940 nM top
Notes: 60-bp whole probe
Added: salmon DNA 0.4 mg/ml
Reference: random background probes
Reading: higher = stronger binding
Shared flanks, not repeated: GCCTAGCAC … GTCTTGATTCGCTTGACGCTGCTG
Under “fitted relative affinity”, `TTAGGACTGGGGTCTGGGTTAGTGCTA` is recorded as -0.59 z-score.
`TTTGATCTCAGTATCGATTAGTGCTAG`: “fitted relative affinity” 5.23 z-score.
For `GACGGATTCGGGTTTCGGGACGTGCTA`, “fitted relative affinity” read 2.65 z-score.
For `TTAGGTCTCCTTTTCTTTTAGTGCTAG`, “fitted relative affinity” read 1.02 z-score.
Under “fitted relative affinity”, `GACTAACTGAGTCTCGAGACGTGCTAG` is recorded as 0.831 z-score.
Under “fitted relative affinity”, `GTCGAACTGGGGTTTCGAGACGTGCTA` is recorded as 3.26 z-score.
`TTAGATTTTGGGTATCGATTAGTGCTA` — result for “fitted relative affinity”: 3.61 z-score.
Under “fitted relative affinity”, `GAGGGTTTCCTTTTCCTGACGTGCTAG` is recorded as 1.48 z-score.
For `TTAGGTTTCGACACTAGGTTAGTGCTA`, “fitted relative affinity” read 8.36 z-score.
`GTCCACTCCAGACCGTTTGCGTGCTAG` — result for “fitted relative affinity”: 0.0974 z-score.
`GACGGTTCCGGTTTCAGGACGTGCTAG` — result for “fitted relative affinity”: 4.15 z-score.
`AAGACTTTCTTTCAAATGAAGTGCTAG` — result for “fitted relative affinity”: 1.1 z-score.
Under “fitted relative affinity”, `TCAGAGTCCTGTTTGATACTGTGCTAG` is recorded as -0.378 z-score.
`AACGGTTTCGGACTGGGGACGTGCTAG`: “fitted relative affinity” 6.42 z-score.
Under “fitted relative affinity”, `TCATATATAATATATATTACTGTGCTA` is recorded as 0.445 z-score.
`TCATTTCTACTGTCTGTTACTGTGCTA` — result for “fitted relative affinity”: 1.15 z-score.
`TTAGGTATCAGGACTGGGTTAGTGCTA` — result for “fitted relative affinity”: 1.32 z-score.
For `GACGGTCTCCTTTTCCTAACGTGCTAG`, “fitted relative affinity” read 0.544 z-score.

Set 4
Target: CEP164, C-terminal peptide (human)
Technique: DHFR complementation, deep sequencing
Sample: yeast
Notes: single substitutions, model-inferred values
Reference: wild type
Reading: higher = weaker binding
Starting sequence: PDZK1, PDZ domain 2 (human); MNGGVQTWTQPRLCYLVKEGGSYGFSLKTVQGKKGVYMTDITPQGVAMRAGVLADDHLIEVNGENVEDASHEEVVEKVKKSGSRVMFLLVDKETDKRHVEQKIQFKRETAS; partner HNRVKVYRF
Under “binding free energy change”, `D68S` is recorded as 0.107 kcal/mol.
`R107Y`: “binding free energy change” -0.0716 kcal/mol.
Under “binding free energy change”, `K33S` is recorded as 0.264 kcal/mol.
Under “binding free energy change”, `S83I` is recorded as 0.218 kcal/mol.
`T94L`: “binding free energy change” -0.108 kcal/mol.
Under “binding free energy change”, `K106D` is recorded as -0.115 kcal/mol.
For `G63N`, “binding free energy change” read 0.117 kcal/mol.
`K33P` — result for “binding free energy change”: 0.814 kcal/mol.
For `E73G`, “binding free energy change” read 0.401 kcal/mol.
For `G4K`, “binding free energy change” read -0.012 kcal/mol.
For `V30A`, “binding free energy change” read 0.0853 kcal/mol.
`M86H`: “binding free energy change” -0.0117 kcal/mol.
Under “binding free energy change”, `G24K` is recorded as 1.01 kcal/mol.
Under “binding free energy change”, `V30E` is recorded as -0.31 kcal/mol.
`C14I`: “binding free energy change” -0.105 kcal/mol.
`M38C`: “binding free energy change” 0.589 kcal/mol.
`V75R` — result for “binding free energy change”: 2.48 kcal/mol.

Set 5
Target: RNA binding protein fox-1 homolog 2, RRM domain, GST-SBP tag (RBFOX2, Homo sapiens, UniProt O43251-10, residues 100-194)
Technique: RNA Bind-n-Seq
Molecule type: RNA
Sample: in vitro
Tested at: 365 nM
Notes: natural RNA segment, single round, ends assumed
Reference: no-protein control
Reading: higher = stronger binding
For `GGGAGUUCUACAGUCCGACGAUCUCUCUUAAUUCUCUCUUACAGUAUUUGUUUACUUUGGAUUUUUGUUUUUAAUCUCAAAAGAGAGAGAUGUGUUUAAUGGACACAAGCUGUAGUUCUCAGCAAAACUUUGUUGGAAUUCUCGGGUGCCAA`, “RBNS enrichment (R)” read 0.532.
For `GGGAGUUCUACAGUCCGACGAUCAGCAGAUGUGCCUCAGUUUCCCCAUCAGACACCUACCUCACCAGGGCAUUGUGGCAGAAUUUUAGGAAGGCAUUGUACAGCCUCUAAGCAUAUCUAAGUGCCAUGAAUACUGGAAUUCUCGGGUGCCAA`, “RBNS enrichment (R)” read 0.455.
`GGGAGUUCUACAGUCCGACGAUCCCAAGCAUAUAUAACUAGCUAGAAGUGGGCCAGGACAGGCCCGGCGCGGUGGCUCACGCCUGUAAUCCCAGCAGUUUGGGAGGUCGAGGUAGGUGGAUCACCUGAGGUCGUGGAAUUCUCGGGUGCCAA` — result for “RBNS enrichment (R)”: 1.82.
`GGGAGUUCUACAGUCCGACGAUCUAUCCAUAUUACGUUGUUUCUUAUAGAUUUUUUAAAAAAAAUGUGAAAUUUUUCCACACUAUGUGUGUUGUUUCCAUAGCUGUUCACUUCCUCCAGAAGCCUCCUUACAUUGGAAUUCUCGGGUGCCAA`: “RBNS enrichment (R)” 0.569.
For `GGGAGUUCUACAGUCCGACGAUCGGGGGAUAACAGCACAUCCUAGAUCAUGUGUGAACUUUGGGGUUUUUAAUUGCCCUUGGUAUCCUGAUAUUCUCAUUUUCAAGGUGAGGUAAAGACAGGGUUUCCUUACUUGGAAUUCUCGGGUGCCAA`, “RBNS enrichment (R)” read 0.622.
For `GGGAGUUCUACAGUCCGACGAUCGUGCUGCAGGAAGCAAAACUGUAGGGUCCUGAGGACACCGUGAGCCAGCCAGGCCUGGCCGCUGGGCCUGACCGGCCCCCCAGCCCCUACACCCCGCUUCUCCCGGACUCUGGAAUUCUCGGGUGCCAA`, “RBNS enrichment (R)” read 0.418.
For `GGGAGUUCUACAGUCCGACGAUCCAAGCUGAAACACCACUGCAUCCGCGUGGCCUUAUGACCUCCUUGCCCACUCACAGAGGCUGGAGGCAGCGACACUGGAACGGAGAAGAGAGAUCUGCAUGAGGGUGAGAUGGAAUUCUCGGGUGCCAA`, “RBNS enrichment (R)” read 8.23.
`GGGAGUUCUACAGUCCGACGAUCUCUUAGUGGCAUCUGCCAAUGAGAUAUCACCUUCCCCCUCUCCUCUUUAAUCUCUUGUUAAAUUACCCCUUUGAUAUUGGUGUCUGUCAGCGUUGGGGCUUCUUAGUAUCUGGAAUUCUCGGGUGCCAA`: “RBNS enrichment (R)” 0.693.
`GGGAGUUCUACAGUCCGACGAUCAUCUGUCUAGAAUCCUGCUUUACAGGAUCAUGUAAAUGCUCAAAGAUGUAAUGUAGUUCUUUGUUCCUGCUUUCUCUUUCAGUAUUAAACUCUCCUUUGAUAUUAUGUGGUGGAAUUCUCGGGUGCCAA` — result for “RBNS enrichment (R)”: 0.44.
Under “RBNS enrichment (R)”, `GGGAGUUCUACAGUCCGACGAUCAAGUGUUCAGCACUUGUGAGUGAAAAAUCAUGUAAUUAUCUGUAAAUAUGUAGCUAACAAAUUGACCUAGUUUCUGUAUUUUUUUGUUUUUGUACUAAAGUUUAUAGGUCUGGAAUUCUCGGGUGCCAA` is recorded as 0.494.
`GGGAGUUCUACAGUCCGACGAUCCAAAAUACUAAAGCUGGGAGGAAACUUGGAGAUCUAUAGGUCAAACCUCCCCAUUGGGCUGAUGAGAAAAUACACGCAGGCCUAGCAUGGUGCCUGCCACCAUGGUGGGAUGGAAUUCUCGGGUGCCAA` — result for “RBNS enrichment (R)”: 2.62.
For `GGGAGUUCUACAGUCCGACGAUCCUGCGCUAUGUGGAUAUUUCUGGAACCACCUGACAGACCUGUCUCCACUCAACUACCUCACCCACCUGCUCUGGCUCAAGGCUGAUGGCAAUCGGCUGCGAAGUGCCCAGUGGAAUUCUCGGGUGCCAA`, “RBNS enrichment (R)” read 0.61.

Repeated from above (set 4):
Under “binding free energy change”, `G24K` is recorded as 1.01 kcal/mol.
Under “binding free energy change”, `S83I` is recorded as 0.218 kcal/mol.
`T94L`: “binding free energy change” -0.108 kcal/mol.
`M38C`: “binding free energy change” 0.589 kcal/mol.
`R107Y`: “binding free energy change” -0.0716 kcal/mol.
`M86H`: “binding free energy change” -0.0117 kcal/mol.
